Experimental data gathered from unrelated publications.
Compare with care: the assays were run in different laboratories. Values joined by “and” are separate records of one study, mostly repeats; a detail may differ.
Cell line: NCI-H23

Compound | test | conditions | scale | measurement | value
Cc1cc(C)n(C(=S)[S][Au][PH](CCCCCC[PH]([Au][S]C(=S)n2nc(C)cc2C)(c2ccccc2)c2ccccc2)(c2ccccc2)c2ccccc2)n1 | cell growth, NCI-60 screen | non-small cell lung cancer |  | log10 TGI | > -4
Cc1n[nH]c2nc(-c3ccc(Cl)cc3)c3c(NC(=O)c4ccccc4)nnc-3n12 | SRB | 10 µM, NCI60 single-dose screen | relative to: untreated | cell growth | 100%
O=C1NC(c2ccccc2)(c2ccccc2)C(=O)N1Cc1cn(-c2c3ccccc3nc3ccccc23)nn1 | NCI60 single-dose screen | 10 µM |  | growth percentage | 85.5%
CCN(CC)c1ccc(C=NNC(=O)CSc2nc3ccccc3c(=O)n2Cc2ccc(S(N)(=O)=O)cc2)c(O)c1 | NCI five-dose screen |  |  | TGI | > 100 µM
Cc1cc(=O)[nH]c(=O)n1Cc1cn(-c2c3ccccc3nc3ccccc23)nn1 | NCI60 single-dose screen | 10 µM |  | growth percentage | 94%
Cc1cc(=O)[nH]n1-c1nc(-c2ccc(Cl)cc2)c2c(NC(=O)c3ccccc3)nnc-2[nH]1 | SRB | 10 µM, NCI60 single-dose screen | relative to: untreated | cell growth | 101%
CCCCN1CCN(c2ccc3nc(-c4ccc5nc(-c6cc(OC)ccc6OC)[nH]c5c4)[nH]c3c2)CC1 | SRB | 10 µM, 48 h |  | growth percent | 98%
O=c1ccn(Cc2cn(-c3cc4ccccc4oc3=O)nn2)c(=O)[nH]1 | NCI60 single-dose screen | 10 µM |  | growth percentage | 99.5%
CCCCN1CCN(c2ccc3[nH]c(-c4ccc5[nH]c(-c6ccc(OCC)c(OCC)c6)nc5c4)nc3c2)CC1 | SRB | 10 µM, 48 h |  | growth percent | -55.9%
CCCc1n(Cc2ccc3ccccc3c2)c2ccccc2[n+]1Cc1ccc2ccccc2c1.[Br-] | NCI60 five-dose screen |  |  | TGI | 1.6 µM
O=C(Nc1nnc2n3c(nc(-c4ccc(Cl)cc4)c1-2)SCC3=O)c1ccccc1 | SRB | 10 µM, NCI60 single-dose screen | relative to: untreated | cell growth | 97.2%
C#C[C@@]1(O)[C@@H](CO)O[C@@H](n2cc(F)c3c(N)ncnc32)[C@@H]1O | SRB | NCI-60 screen |  | TGI | 6.85 µM
CCCCc1n(Cc2ccc3ccccc3c2)c2ccccc2[n+]1Cc1ccc2ccccc2c1.[Br-] | NCI60 five-dose screen |  |  | TGI | 1.7 µM
CCn1cc(-c2cc(Cn3ccnc3)cc3c2CCN([C@H](c2cc(OC)ccn2)C2CC2)C3=O)c(C(F)(F)F)n1 | cell growth, inhibitor | 120 h |  | EC50 | 11.9 µM
CCCCN1CCN(c2ccc3[nH]c(-c4ccc5[nH]c(-c6ccc(OCC)cc6)nc5c4)nc3c2)CC1 | SRB | 10 µM, 48 h |  | growth percent | 64.1%
Cn1cncc1C1=CN(c2ncnc3[nH]cnc23)CCS1 |  | lung cancer |  | GI50 | 27.5 µM
CCCCN1CCN(c2ccc3[nH]c(-c4ccc5[nH]c(-c6ccc(C(F)(F)F)cc6)nc5c4)nc3c2)CC1 | SRB | 10 µM, 48 h |  | growth percent | -85.1%
C#C[C@@]1(O)[C@@H](CO)O[C@@H](n2cc(Cl)c3c(N)ncnc32)[C@@H]1O | SRB | NCI-60 screen |  | TGI | 1.28 µM and 0.716 µM
O=C(Nc1nnc2[nH]c(=S)[nH]c(-c3ccc(Cl)cc3)c1-2)c1ccccc1 | SRB | 10 µM, NCI60 single-dose screen | relative to: untreated | cell growth | 96.9%
CN1CCN(c2ccc3[nH]c(-c4ccc5[nH]c(-c6ccc(C(F)(F)F)cc6)nc5c4)nc3c2)CC1 | SRB | 10 µM, 48 h |  | growth percent | 68.2%
CSc1nc(-c2ccc(Cl)cc2)c2c(NC(=O)c3ccccc3)nnc-2[nH]1 | SRB | 10 µM, NCI60 single-dose screen | relative to: untreated | cell growth | 97.2%
Cc1cc2c(cc1C)[n+](Cc1ccc3ccccc3c1)cn2Cc1ccc2ccccc2c1.[Br-] | NCI60 five-dose screen |  |  | TGI | 2.28 µM
Cc1cc(-c2ccccc2)n(-c2nc(-c3ccc(Cl)cc3)c3c(NC(=O)c4ccccc4)nnc-3[nH]2)n1 | SRB | 10 µM, NCI60 single-dose screen | relative to: untreated | cell growth | 102%
CCCN1CCN(c2ccc3[nH]c(-c4ccc5[nH]c(-c6ccc(C(F)(F)F)cc6)nc5c4)nc3c2)CC1 | SRB | 10 µM, 48 h |  | growth percent | -77.1%

Excerpt of the above:
Compound | test | conditions | scale | measurement | value
Cc1cc(=O)[nH]n1-c1nc(-c2ccc(Cl)cc2)c2c(NC(=O)c3ccccc3)nnc-2[nH]1 | SRB | 10 µM, NCI60 single-dose screen | relative to: untreated | cell growth | 101%
CCCCN1CCN(c2ccc3nc(-c4ccc5nc(-c6cc(OC)ccc6OC)[nH]c5c4)[nH]c3c2)CC1 | SRB | 10 µM, 48 h |  | growth percent | 98%
O=c1ccn(Cc2cn(-c3cc4ccccc4oc3=O)nn2)c(=O)[nH]1 | NCI60 single-dose screen | 10 µM |  | growth percentage | 99.5%
CCCCN1CCN(c2ccc3[nH]c(-c4ccc5[nH]c(-c6ccc(OCC)c(OCC)c6)nc5c4)nc3c2)CC1 | SRB | 10 µM, 48 h |  | growth percent | -55.9%
